# Assay results of several laboratories.
# Lines come from different studies, so protocols differ. Numbers after ± are the reported error.
# agrC: Receptor-histidine kinase AgrC (agrC, Staphylococcus aureus, UniProt O07911)
# GPR139: Probable G-protein coupled receptor 139 (GPR139, Homo sapiens, UniProt Q6DWJ6)
# Chain of UniProt Q6DWJ6 (whole entry, looked up): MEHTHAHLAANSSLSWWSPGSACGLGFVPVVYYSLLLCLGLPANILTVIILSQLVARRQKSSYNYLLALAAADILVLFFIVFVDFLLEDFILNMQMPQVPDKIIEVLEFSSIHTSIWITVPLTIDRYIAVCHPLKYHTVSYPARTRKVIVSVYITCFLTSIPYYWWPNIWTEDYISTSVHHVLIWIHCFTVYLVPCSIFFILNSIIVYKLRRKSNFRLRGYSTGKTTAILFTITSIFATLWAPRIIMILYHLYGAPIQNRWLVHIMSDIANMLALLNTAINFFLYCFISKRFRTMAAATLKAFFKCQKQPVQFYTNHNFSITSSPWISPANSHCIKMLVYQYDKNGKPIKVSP
# OPRK1: Kappa-type opioid receptor (OPRK1, Homo sapiens, UniProt P41145)
# Chain of UniProt P41145 (whole entry, looked up): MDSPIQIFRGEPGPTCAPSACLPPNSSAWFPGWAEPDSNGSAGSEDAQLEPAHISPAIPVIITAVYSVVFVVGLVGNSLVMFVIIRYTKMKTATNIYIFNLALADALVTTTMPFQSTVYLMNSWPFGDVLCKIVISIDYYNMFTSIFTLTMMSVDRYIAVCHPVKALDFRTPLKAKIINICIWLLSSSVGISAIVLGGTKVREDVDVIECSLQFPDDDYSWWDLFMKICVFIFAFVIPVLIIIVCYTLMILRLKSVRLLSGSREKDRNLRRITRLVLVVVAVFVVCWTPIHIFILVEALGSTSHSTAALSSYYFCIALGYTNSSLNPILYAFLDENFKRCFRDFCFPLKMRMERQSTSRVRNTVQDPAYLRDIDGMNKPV
# Chain of UniProt Q15391 (whole entry, looked up): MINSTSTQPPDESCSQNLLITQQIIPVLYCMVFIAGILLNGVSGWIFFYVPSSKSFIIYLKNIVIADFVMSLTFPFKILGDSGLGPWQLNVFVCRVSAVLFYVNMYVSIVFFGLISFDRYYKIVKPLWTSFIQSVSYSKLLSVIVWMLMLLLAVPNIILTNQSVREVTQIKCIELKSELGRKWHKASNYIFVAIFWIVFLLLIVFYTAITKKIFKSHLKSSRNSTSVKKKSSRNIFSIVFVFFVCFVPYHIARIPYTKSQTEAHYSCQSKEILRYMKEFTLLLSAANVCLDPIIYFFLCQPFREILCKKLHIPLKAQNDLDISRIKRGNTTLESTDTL
# Chain of UniProt Q96NY8 (whole entry, looked up): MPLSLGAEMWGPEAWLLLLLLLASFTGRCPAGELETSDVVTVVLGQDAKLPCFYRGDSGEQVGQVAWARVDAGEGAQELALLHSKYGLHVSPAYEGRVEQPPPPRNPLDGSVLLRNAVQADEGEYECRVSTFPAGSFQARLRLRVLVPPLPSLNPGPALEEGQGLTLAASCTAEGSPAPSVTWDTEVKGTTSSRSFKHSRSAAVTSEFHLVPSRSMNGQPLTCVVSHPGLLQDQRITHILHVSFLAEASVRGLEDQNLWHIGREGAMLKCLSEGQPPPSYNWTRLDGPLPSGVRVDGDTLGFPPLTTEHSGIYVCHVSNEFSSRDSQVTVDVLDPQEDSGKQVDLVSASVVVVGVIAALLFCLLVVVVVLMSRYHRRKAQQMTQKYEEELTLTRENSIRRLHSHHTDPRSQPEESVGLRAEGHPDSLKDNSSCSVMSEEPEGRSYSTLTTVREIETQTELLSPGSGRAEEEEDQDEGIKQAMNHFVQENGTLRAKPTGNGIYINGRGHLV
# Chain of UniProt Q16581 (whole entry, looked up): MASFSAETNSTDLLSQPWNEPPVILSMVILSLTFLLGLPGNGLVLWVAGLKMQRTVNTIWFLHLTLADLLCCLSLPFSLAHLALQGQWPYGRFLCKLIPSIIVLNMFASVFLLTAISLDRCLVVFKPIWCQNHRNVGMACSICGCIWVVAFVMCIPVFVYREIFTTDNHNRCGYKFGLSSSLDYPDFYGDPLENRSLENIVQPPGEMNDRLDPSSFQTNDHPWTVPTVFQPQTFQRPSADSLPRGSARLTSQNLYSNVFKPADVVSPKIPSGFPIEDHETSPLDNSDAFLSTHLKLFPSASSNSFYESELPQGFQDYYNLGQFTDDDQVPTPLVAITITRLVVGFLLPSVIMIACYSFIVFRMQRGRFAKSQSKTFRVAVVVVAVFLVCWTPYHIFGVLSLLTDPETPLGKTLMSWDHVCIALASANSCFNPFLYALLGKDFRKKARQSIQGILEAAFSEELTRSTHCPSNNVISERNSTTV
# Chain of UniProt Q9UKP6 (whole entry, unmodified, looked up): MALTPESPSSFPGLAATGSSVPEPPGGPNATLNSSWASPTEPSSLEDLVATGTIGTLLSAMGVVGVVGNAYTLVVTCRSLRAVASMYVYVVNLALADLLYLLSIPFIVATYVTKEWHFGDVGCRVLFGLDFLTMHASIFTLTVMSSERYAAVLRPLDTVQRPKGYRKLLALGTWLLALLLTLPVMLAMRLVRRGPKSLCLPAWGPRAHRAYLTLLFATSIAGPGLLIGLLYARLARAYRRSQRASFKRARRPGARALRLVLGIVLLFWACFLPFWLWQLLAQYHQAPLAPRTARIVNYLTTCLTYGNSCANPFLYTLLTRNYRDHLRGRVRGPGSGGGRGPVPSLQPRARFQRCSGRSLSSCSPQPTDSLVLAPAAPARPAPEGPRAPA
# Chain of UniProt Q07011 (whole entry, unmodified, looked up): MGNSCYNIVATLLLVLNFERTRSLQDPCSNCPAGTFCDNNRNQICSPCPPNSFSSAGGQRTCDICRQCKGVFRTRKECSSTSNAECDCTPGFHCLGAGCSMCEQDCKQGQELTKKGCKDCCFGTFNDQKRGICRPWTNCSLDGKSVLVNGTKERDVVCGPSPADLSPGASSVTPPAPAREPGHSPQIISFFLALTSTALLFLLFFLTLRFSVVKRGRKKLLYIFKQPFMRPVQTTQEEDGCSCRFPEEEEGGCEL
# Chain of UniProt P25929 (whole entry, looked up): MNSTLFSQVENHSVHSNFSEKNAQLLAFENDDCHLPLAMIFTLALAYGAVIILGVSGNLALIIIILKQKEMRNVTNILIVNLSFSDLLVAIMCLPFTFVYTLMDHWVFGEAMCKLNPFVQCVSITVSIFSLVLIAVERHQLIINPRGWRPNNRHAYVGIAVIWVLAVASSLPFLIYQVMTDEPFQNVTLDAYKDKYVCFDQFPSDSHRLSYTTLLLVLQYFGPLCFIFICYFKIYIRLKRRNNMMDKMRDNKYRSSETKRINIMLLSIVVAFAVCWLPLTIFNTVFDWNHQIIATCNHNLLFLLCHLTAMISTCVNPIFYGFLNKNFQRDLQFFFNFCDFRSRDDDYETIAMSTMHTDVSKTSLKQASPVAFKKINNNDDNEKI
# Chain of UniProt P46098 (whole entry, looked up): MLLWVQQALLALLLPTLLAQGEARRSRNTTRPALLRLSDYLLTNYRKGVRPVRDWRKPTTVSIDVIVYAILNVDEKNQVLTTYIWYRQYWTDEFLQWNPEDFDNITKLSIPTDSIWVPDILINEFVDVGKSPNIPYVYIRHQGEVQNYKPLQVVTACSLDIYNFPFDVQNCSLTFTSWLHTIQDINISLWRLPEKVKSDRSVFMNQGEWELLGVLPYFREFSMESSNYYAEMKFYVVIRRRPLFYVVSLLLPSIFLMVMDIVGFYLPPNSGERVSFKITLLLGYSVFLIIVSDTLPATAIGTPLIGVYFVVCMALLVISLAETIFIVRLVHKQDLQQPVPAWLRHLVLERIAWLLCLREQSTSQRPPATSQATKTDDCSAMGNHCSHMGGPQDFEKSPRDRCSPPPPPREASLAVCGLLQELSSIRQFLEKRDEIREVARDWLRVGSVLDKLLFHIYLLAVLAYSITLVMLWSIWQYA
# Chain of UniProt P41968 (whole entry, looked up): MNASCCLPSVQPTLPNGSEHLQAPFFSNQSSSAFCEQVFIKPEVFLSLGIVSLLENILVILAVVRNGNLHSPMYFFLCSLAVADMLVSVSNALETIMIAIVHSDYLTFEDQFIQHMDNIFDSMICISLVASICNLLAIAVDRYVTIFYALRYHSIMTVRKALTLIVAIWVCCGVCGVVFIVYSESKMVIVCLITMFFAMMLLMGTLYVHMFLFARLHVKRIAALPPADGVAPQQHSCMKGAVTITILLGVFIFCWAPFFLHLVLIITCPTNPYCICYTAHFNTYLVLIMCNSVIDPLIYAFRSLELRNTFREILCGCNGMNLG
# Chain of UniProt Q96LB1 (whole entry, looked up): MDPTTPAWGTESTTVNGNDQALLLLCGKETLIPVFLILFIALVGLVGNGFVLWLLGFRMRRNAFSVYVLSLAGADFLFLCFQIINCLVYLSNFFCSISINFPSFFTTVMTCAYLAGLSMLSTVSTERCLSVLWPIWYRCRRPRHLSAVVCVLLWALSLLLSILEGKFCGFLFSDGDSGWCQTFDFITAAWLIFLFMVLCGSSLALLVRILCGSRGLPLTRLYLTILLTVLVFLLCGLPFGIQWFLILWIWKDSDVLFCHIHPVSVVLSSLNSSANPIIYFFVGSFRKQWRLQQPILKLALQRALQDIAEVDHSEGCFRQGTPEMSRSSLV
SMILES,target,assay,system,setting,EC50
CSCC[C@@H]1NC(=O)[C@@H]2CCCN2C(=O)[C@H](Cc2ccccc2)NC(=O)[C@H](CC(=O)O)NC(=O)[C@@H](NC(=O)[C@@H](NC(=O)[C@H](CO)NC(=O)[C@@H](N)Cc2ccc(O)cc2)[C@@H](C)O)CSC1=O,agrC,,Staphylococcus aureus cells,,> 10000 nM
CC(C)C[C@H](NC(=O)[C@H](Cc1ccccc1)NC(=O)CNC(=O)CNC(=O)[C@@H](N)Cc1ccc(O)cc1)C(=O)N[C@@H](CCCN=C(N)N)C(=O)N[C@@H](CCCN=C(N)N)C(=O)N[C@@H](CCC(N)=O)C(=O)N[C@@H](Cc1ccccc1)C(=O)N[C@@H](CCCCN)C(=O)N[C@H](C(=O)N[C@H](C(=O)N[C@H](C(=O)O)[C@@H](C)O)C(C)C)C(C)C,GPR139,"calcium response, agonist, BRET","HEK293T/17, transfected",,25900 ± 1880 nM
Cc1cc(C(c2ccc(Cl)cc2)c2ccc(Cl)cc2)sc1C(=O)N[C@@H](CCCNC(=N)N)C(=O)O,"C3a anaphylatoxin chemotactic receptor (C3AR1, Homo sapiens, UniProt Q16581)","GoA dissociation, agonist, NanoBiT G-protein",,,2.88 nM
O=c1ccn([C@@H]2O[C@H](CO[P@@](O)(=S)OP(=O)(O)OP(=O)(O)O)[C@@H](O)[C@H]2O)c(=S)[nH]1,"P2Y purinoceptor 14 (P2RY14, Homo sapiens, UniProt Q15391)",agonist,,,37 nM
O=C(Cc1ccc(Cl)c(Cl)c1)N1CCN[C@@H]2COC[C@H](N3CCCC3)[C@H]21,OPRK1,"β-arrestin recruitment, agonist",,,10000 nM
CC[C@H](C)[C@@H]1NC(=O)[C@H](Cc2ccccc2)NC(=O)[C@H](CC(=O)O)NC(=O)[C@@H](NC(=O)[C@@H](NC(=O)[C@H](CO)NC(=O)[C@@H](N)Cc2ccc(O)cc2)[C@@H](C)O)CCSC(=O)[C@H](CCSC)NC1=O,agrC,,Staphylococcus aureus cells,,> 10000 nM
CCCCCCCCCCCCCCCCCC(=O)NC[C@H]1CC[C@H](C(=O)N[C@@H](CCC(=O)NCCCOCCOCCOCCCNC(=O)COCC(=O)N[C@@H](Cc2ccc(O)cc2)C(=O)NC(C)(Cc2ccccc2)C(=O)N[C@@H](CC(C)C)C(=O)N[C@@H](CCCC)C(=O)N[C@@H](CCCNC(=N)N)C(=O)N2CCC[C@H]2C(=O)N[C@@H](CCCNC(=N)NC)C(=O)N[C@@H](CC(N)=O)C(N)=O)C(=O)O)CC1 (some centres unmarked),"Mas-related G-protein coupled receptor member X2 (MRGPRX2, Homo sapiens, UniProt Q96LB1)","β-arrestin recruitment, agonist",,,3700 nM
CCCC[C@@H]1NC(=O)[C@H](Cc2ccc(O)cc2)NC(=O)[C@@H]2CCCN2C(=O)[C@H](CC(=O)O)NC(=O)[C@H](C)NC(=O)[C@H](Cc2ccccc2)NC(=O)[C@@H]2CSCCC(=O)N3CN(CN(C3)C(=O)CCSC[C@@H](C(=O)N[C@@H](C)C(N)=O)NC1=O)C(=O)CCSC[C@H](NC(C)=O)C(=O)N[C@@H](CC(C)(C)C)C(=O)N1CCC[C@H]1C(=O)N[C@@H](CCC(=O)O)C(=O)N[C@H](CCCCNC(=O)CCc1cn(CCOCCOCCOCCN(CCOCCOCCOCCC(=O)N[C@H]3CSCCC(=O)N4CN5CN(C4)C(=O)CCSC[C@H](NC(=O)[C@@H](CC(=O)O)NC(=O)[C@H](Cc4cccc6ccccc46)NC(=O)[C@@H]4CCCN4C3=O)C(=O)N[C@@H](CCSC)C(=O)N[C@@H](CCCCNC(=N)N)C(=O)N[C@@H](CC(=O)O)C(=O)N[C@@H](Cc3c[nH]c4ccccc34)C(=O)N[C@@H](CO)C(=O)N[C@@H]([C@@H](C)O)C(=O)N3CCC[C@H]3C(=O)N3C[C@H](O)C[C@H]3C(=O)N[C@@H](Cc3c[nH]c4ccccc34)C(=O)N[C@H](C(N)=O)CSCCC5=O)CCOCCOCCOCCn3cc(CCC(=O)NCCCC[C@H]4NC(=O)[C@H](CCC(=O)O)NC(=O)[C@@H]5CCCN5C(=O)[C@H](CC(C)(C)C)NC(=O)[C@@H](NC(C)=O)CSCCC(=O)N5CN6CN(C5)C(=O)CCSC[C@H](NC(=O)[C@H](Cc5ccc(O)cc5)NC(=O)[C@@H]5CCCN5C4=O)C(=O)N[C@@H](Cc4ccccc4)C(=O)N[C@@H](C)C(=O)N[C@@H](CC(=O)O)C(=O)N4CCC[C@H]4C(=O)N[C@@H](Cc4ccc(O)cc4)C(=O)N[C@@H](CCCC)C(=O)N[C@H](C(=O)N[C@@H](C)C(N)=O)CSCCC6=O)nn3)nn1)C(=O)N1CCC[C@H]1C(=O)N[C@@H](Cc1ccc(O)cc1)C(=O)N2,"Tumor necrosis factor receptor superfamily member 9/Nectin-4 (Homo sapiens, UniProt Q07011+Q96NY8)","reporter gene, agonist",HT-1376 coculture with reporter cells,,0.22 nM
CC[C@H](C)[C@@H]1NC(=O)[C@H](Cc2ccccc2)NC(=O)C[C@H](C)NC(=O)[C@@H](NC(=O)[C@@H](NC(=O)[C@H](CO)NC(=O)[C@@H](N)Cc2ccc(O)cc2)[C@@H](C)O)CSC(=O)[C@H](CCSC)NC1=O,agrC,,Staphylococcus aureus cells,,345 nM
CC[C@H](C)[C@H](NC(=O)[C@H](Cc1ccc(O)cc1)NC(=O)[C@H](CCCNC(=N)N)NC(=O)[C@H](CCCNC(=N)N)NC(=O)[C@H](CC(C)C)NC(=O)[C@H](CC(=O)O)NC(=O)[C@H](C)NC(=O)[C@H](C)NC(=O)[C@H](Cc1ccc(O)cc1)NC(=O)[C@H](CCC(N)=O)NC(=O)[C@H](C)NC(=O)[C@H](CCSC)NC(=O)[C@H](CCC(N)=O)NC(=O)[C@H](CCC(=O)O)NC(=O)[C@@H]1CCCN1C(=O)[C@@H](NC(=O)[C@H](C)NC(=O)[C@H](CC(N)=O)NC(=O)[C@H](CC(=O)O)NC(=O)CNC(=O)[C@@H]1CCCN1C(=O)[C@H](Cc1ccc(O)cc1)NC(=O)[C@@H](NC(=O)[C@@H]1CCCN1C(=O)[C@H](CCCCN)NC(=O)[C@H](CC(C)C)NC(=O)[C@@H]1CCCN1C(=O)[C@@H](N)Cc1ccc(O)cc1)C(C)C)[C@@H](C)O)C(=O)N[C@@H](CC(N)=O)C(=O)N[C@@H](CCSC)C(=O)N[C@@H](CC(C)C)C(=O)N[C@H](C(=O)N[C@@H](CCCNC(=N)N)C(=O)N1CCC[C@H]1C(=O)N[C@@H](CCCNC(=N)N)C(=O)N[C@@H](Cc1ccc(O)cc1)C(N)=O)[C@@H](C)O,"Neuropeptide Y receptor type 1 (NPY1R, Homo sapiens, UniProt P25929)",agonist,,,3.16 nM
CC(C)[C@H](NC(=O)[C@@H]1CSSC(C)(C)[C@H](NC(=O)[C@@H](N)CC(=O)O)C(=O)N[C@@H](Cc2ccccc2)C(=O)N[C@@H](Cc2c[nH]c3ccccc23)C(=O)N[C@@H](CCCCN)C(=O)N[C@@H](Cc2ccc(O)cc2)C(=O)N1)C(=O)O,"Urotensin-2 receptor (UTS2R, Homo sapiens, UniProt Q9UKP6, Y283A)","IP1 accumulation, agonist, HTRF",HEK293T,"1 h, 37 °C, Y283A mutant, 6.60",3.98 nM
CC[C@H](C)[C@H](NC(=O)[C@H](CCCNC(=N)N)NC(=O)[C@H](CCCNC(=N)N)NC(=O)[C@H](CC(C)C)NC(=O)[C@H](Cc1ccccc1)NC(=O)CNC(=O)CNC(=O)[C@@H](N)Cc1ccc(O)cc1)C(=O)N[C@@H](CCCNC(=N)N)C(=O)N1CCC[C@H]1C(=O)N[C@@H](CCCCN)C(=O)N[C@@H](CC(C)C)C(=O)N[C@@H](CCCCN)C(=O)N[C@@H](Cc1c[nH]c2ccccc12)C(=O)N[C@@H](CC(=O)O)C(=O)N[C@@H](CC(N)=O)C(=O)N[C@@H](CCC(N)=O)C(=O)O,GPR139,"calcium response, agonist, BRET","HEK293T/17, transfected",,14700 ± 1340 nM
O=C(Cc1ccc(Cl)c(Cl)c1)N1CCN(Cc2ccccc2)[C@@H]2CCC[C@H](N3CCCC3)[C@H]21 (relative stereo),OPRK1,,,,140 ± 10 nM
CN1CC[C@@]23c4c5ccc(O)c4C[C@@H]2[C@H](O)C=C[C@@H]3[C@@H]1C5,OPRK1,,cell-based,,2570 nM
CC[C@H](C)[C@@H]1NC(=O)[C@@H]2CCCN2C(=O)[C@H](CC(=O)O)NC(=O)[C@@H](NC(=O)[C@@H](NC(=O)[C@H](CO)NC(=O)[C@@H](N)Cc2ccc(O)cc2)[C@@H](C)O)CSC(=O)[C@H](CCSC)NC1=O,agrC,,Staphylococcus aureus cells,,> 10000 nM
CCCC[C@H](NC(C)=O)C(=O)N[C@H]1CCC(=O)NCCC[C@@H](C(=O)N[C@@H](C(=O)N2CCC[C@@H]2C(N)=O)C(C)C)NC(=O)[C@H](Cc2c[nH]c3ccccc23)NC(=O)[C@H](CCCNC(=N)N)NC(=O)[C@@H](Cc2ccc(F)cc2)NC(=O)[C@H](Cc2c[nH]cn2)NC1=O,"Melanocortin receptor 3 (MC3R, Homo sapiens, UniProt P41968)","cAMP, agonist",,,0.073 nM
O=C(O)CCn1c(=O)oc2cc(Cl)c(Cl)cc21,"5-hydroxytryptamine receptor 3A (HTR3A, Homo sapiens, UniProt P46098)",opener,,median,> 50100 nM

# Some of these lines once more:
SMILES,target,assay,system,setting,EC50
O=c1ccn([C@@H]2O[C@H](CO[P@@](O)(=S)OP(=O)(O)OP(=O)(O)O)[C@@H](O)[C@H]2O)c(=S)[nH]1,"P2Y purinoceptor 14 (P2RY14, Homo sapiens, UniProt Q15391)",agonist,,,37 nM
